# Published values from different studies.
# A part holds a random share of what one study measured. Substitutions count along the parent as printed.

# Series 1 — method: RNA Bind-n-Seq; molecule type: RNA; matrix: in vitro; tested at: 365 nM; baseline: no-protein control; direction: higher = stronger binding
# Target: RNA binding protein fox-1 homolog 2, RRM domain, GST-SBP tag (RBFOX2, Homo sapiens, UniProt O43251-10, residues 100-194)
# Notes: natural RNA segment, single round, ends assumed
# All sequences stand within: GGGAGUUCUACAGUCCGACGAUC … UGGAAUUCUCGGGUGCCAA
# Target sequence (chain): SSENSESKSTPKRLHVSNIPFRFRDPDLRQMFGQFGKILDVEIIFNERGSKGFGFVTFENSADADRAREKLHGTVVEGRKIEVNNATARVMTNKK
Sequence,RBNS enrichment (R)
UUCAUAAUUCAGAAGUAAACCUUUCAUAGGAAAAAUACUGAGCUGUGCUAAUGUAGCUGAUUUUAGUCUCCUUGUCCCACUUACACUAUGCAGUAUCUCCUAACUUCAGU,0.286
GCUUGGCCUGCAACAUGGGAGGCUUGGGACGGGGGUCUUGGACCUGCUCAUGACCCCUGAGCAGCCUGCAAUGAGGUGUGUGUGCCCAGCCACUUGGCUGGGCAGGGAGA,0.523
UGGUUUUACACCCACCCCCUGGGCAGGGAGUUUGCACGUAGUUGUGAGCUGUGAGUGGUUAGUGCAUUGCUGGUAUUGCUGAAGGCAGGGUUGAUCCCUCACUUGACUGA,1.1
UGUUGCCCAGCUCUGUAGACAUCCCUGCUCCCCAGCUGCCCAAAGACCCCCUCCCCAUUGAUGCCACCUCAAGGAAAGGGGGCAUGUUGCCAGCUGGUUCCCGCUAGGGA,0.424
GCUGCCUGUGGUCUCCUUCCGGCUGUGGCUGACAGUGGCUCUGGCCAGGGUUGCUUGGAGAAGGCUCAGUGUGCCUGGGACAGGGCUUACCACCUGCCACCAAGGUUUCC,0.513
CUCCAUGACCCUCUGAGUGAUGGUUCUUUUGCGCCCUGUAGCUGUUCUAGGAUAGGAUGCAUGUUAGUAAGUUACGUAUGCAAGUCUGAGCGCGCGCGGCUGAUGGACAU,1.12
GGAGAGAAUGGCUGGGUGCUGGGGAGUUCCCCCCUCCGAGCCCUCCUUCCCGGCCCAACCUGAGGGAUGUGGAUUUGGGACUGUCUGGGGGCCCCUCCUGCAGCGAGGAU,0.452
CUCUUGAACUUGGGUGGGGAACCCCACCCAAAAGCCCCCUUGUUAGCUCUUUGGCAAUUCUCCUUCCCUCACUCCUCAGGGUGGGGGCUAGAGUAAGCCUGACAUCCUCC,0.278
UCUAUGACUGUGUUGACACGGAGAUUAAGUUCUUUAAGUGAAGUAAGCGUUCCCUUUCCCCUUCUUAUUUAAGACUUCCCACCUUACUAAAUUACCAGCAAAACAAACCA,0.792
UGCUCCAGCCAGGGCCCCUGCGCUUCCUGUGCAGACAGGAAGCUGUGUGGGAGACUGUCAUUUGGGAAUUUGAUUUUUUUUUUUCUGUACGAAUUUAAAAAAAAAAGAAA,0.491
GACUGGUCUUCAGGAGUCAGUAGACCACCGGACCAGGUGUCAGCAUCCACUCCAAGCCAUGCUAGGAAUCUGCCCCCUGCCGGGUUCAGCUCUUUAAGGUGCCUCUUCAG,0.255
UGUGCUCCCUGCCUUGCCUAGGAUGAAGCCUCCAGCGCUGCUCCCUGGCCCUGUUCCUGGCAUAUGGCAAUGUACCCCAGGCUCAGGGAUCUCCCUUCCUUGAGGAUGUU,0.474

# Series 2 — method: protein binding microarray; molecule type: double-stranded DNA, one strand shown; matrix: in vitro; tested at: not given; baseline: not given; direction: higher = stronger binding
# Target: Histone acetyltransferase KAT6A, both winged helices, GST fusion (KAT6A, Homo sapiens, UniProt Q92794, residues 1-181)
# Notes: 8-mer, flanks averaged, mean of 2 arrays, mostly near background
# Target sequence (chain): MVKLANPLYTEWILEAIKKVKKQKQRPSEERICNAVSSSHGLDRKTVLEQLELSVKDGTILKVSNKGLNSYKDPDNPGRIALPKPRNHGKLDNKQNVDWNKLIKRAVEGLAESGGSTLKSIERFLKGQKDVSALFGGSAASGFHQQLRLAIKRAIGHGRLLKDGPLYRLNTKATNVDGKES
Sequence,E-score
ACATGCCA,-0.15
CGCGGCGC,0.391
AGGCCACT,-0.0702
GCGGACCC,0.241
ATTCATAG,-0.0843
AAATCGTA,-0.0676
AGTACCAG,-0.175
GGTGTGGA,-0.142
ATGGCTGA,-0.197
CCTCAATC,-0.0294
GAACATAA,-0.0443
CCCAACGA,-0.0732
GATTTCTA,0.0623
AGGTCTAG,-0.0744
GTAAACCA,0.0238
CGGCTAGC,0.229
GACAGATC,-0.0355
AGCTTACC,-0.0627

# Series 3 — method: protein-binding microarray; molecule type: double-stranded DNA, one strand shown; matrix: in vitro; tested at: 940 nM top; notes: 60-bp whole probe; with: salmon DNA 0.4 mg/ml; baseline: random background probes; direction: higher = stronger binding; all sequences stand within: GCCTAGCAC … GTCTTGATTCGCTTGACGCTGCTG
# Target: Interferon regulatory factor 5, full length, phosphomimetic (IRF5, Homo sapiens, UniProt Q13568-2, residues 1-514, S451D/S453D/S456D/S462D)
Sequence,fitted relative affinity
TTTTTTTTTTTTTTTTTGTAGTGCTAG,0.998 z-score
ACGAGTTTCTATTTTCTGAAGTGCTAG,4.84 z-score
TCATGTCTGTGTCACAGACTGTGCTAG,-0.25 z-score
TTAGTTATCAGACTGGATTAGTGCTAG,-0.15 z-score
TTAGGTATCCTCTTCCTTTAGTGCTAG,0.643 z-score
TACGGACTGGGGACTGGGGACGTGCTA,-0.359 z-score
TTAGGTATCCATTTCCTTTAGTGCTAG,0.679 z-score
TTAGATATCTGTCTCGATTAGTGCTAG,1.72 z-score
GACGGACTGCTACTGATGACGTGCTAG,-0.406 z-score
GACGGTATCGGTTTCCGGACGTGCTAG,10.2 z-score
GTGTTTTCATTTTATGACAGCGTGCTA,1.3 z-score
TTAGGTTTCGACTTTTGGTTAGTGCTA,7.65 z-score
GACGGTATCGACACTGGGCACGTGCTA,3.54 z-score
TCACCCTTGCTTTCCAAACTGTGCTAG,0.847 z-score
TTAGGTCTCCTTATCCTATAGTGCTAG,0.634 z-score
TTAGATATCAGTATCGATTTGTGCTAG,4.14 z-score
TTAGGACTGGGTATCTGTTAGTGCTAG,0.479 z-score
GACAGTTTCGGTCTCGGGACGTGCTAG,14.4 z-score
GACGGACTGGACTATCGGGTCGTGCTA,-0.37 z-score
TTAGAACTGGGGACTGGAATAGTGCTA,-0.172 z-score
GACGGTATCGGGCTTCGGGACGTGCTA,2.69 z-score
CCCGTTCACCCACGACCCTTGTGCTAG,0.501 z-score
TGGAATTTCCCTCTCCCCTCGTGCTAG,0.179 z-score
TTAGATTTCGGATTTCGATTAGTGCTA,1 z-score

# Series 4 — method: aptamer microarray, sandwich; molecule type: DNA with 2'F-ANA; matrix: in vitro; tested at: 200 nM; with: Cy3 exosite-II aptamer, 400 nM; direction: higher = stronger binding; sequence: GGTTGGTGTGGTTGG
# Target: Prothrombin, mature alpha-thrombin (F2, Homo sapiens, UniProt P00734)
# Notes: whole 15-mer aptamer, many near background
Modification,mean fluorescence intensity [a.u.]
2'F-ANA at 1 7 9 15,246
2'F-ANA at 3 5 7 8 9 11 14,68.7
2'F-ANA at 2 6 12 14 15,151
2'F-ANA at 2 8 9 15,470
2'F-ANA at 2 5 8 9 10 11 13 14 15,54.7
2'F-ANA at 2 3 4 5 10 11 14 15,46.8
2'F-ANA at 1 2 4 5 6 7 11 12,121
2'F-ANA at 1 2 3 10,70.1
2'F-ANA at 1 2 3 4 6 8 9 14,238
2'F-ANA at 1 4 5 6 7 8 9 10 12 13 14,65.1
2'F-ANA at 2 4 8 9 13,210
2'F-ANA at 1 2 5 6 9 12 13,75.8
2'F-ANA at 1 2 4 5 7 11 12 13 14,49
2'F-ANA at 1 2 6 12 14,73.8
2'F-ANA at 2 3 7 8 10 14 15,353
2'F-ANA at 2 6 8 11 13,312
2'F-ANA at 2 7 8 9 10 11 13 14,111
2'F-ANA at 2 3 4 5 6 7 9 10 11 12 14,60.4
2'F-ANA at 6 11 15,391
2'F-ANA at 5 6 9 10 14 15,84.1
2'F-ANA at 3 7 8 12 13 14 15,817
2'F-ANA at 2 3 4 6 7 8 10 11 12 14,152
2'F-ANA at 2 4 6 8 9 12 14 15,110
2'F-ANA at 5 9 10 12 15,53
2'F-ANA at 1 3 4 15,242

# Series 5 — target: CCNB3, cyclin fold, Cln2 fusion (human); method: yeast growth competition, sequencing; matrix: yeast; notes: weak parent motif; baseline: not given; direction: higher = stronger binding
# Starting sequence: WEE1 docking peptide (human); HKTFRKLRLFDTP
Variant,normalised enrichment score
HKTFRKLGLFDTP [R8G],0.316
HKTFRKLRLCDTP [F10C],0.111
HKTFRKTRLFDTP [L7T],-0.132
HKTFRKLRLFDCP [T12C],0.0879
HKTFRKLRTFDTP [L9T],-0.264
HKRFRKLRLFDTP [T3R],-0.118
HKTFRKLRLFKTP [D11K],0.0482
HKTFAKLRLFDTP [R5A],-0.819
HKTFRKLRLFETP [D11E],-0.00569
HKTFRKLRCFDTP [L9C],-0.185
HKTFRKLRLFVTP [D11V],-0.144
HKTFRKNRLFDTP [L7N],-0.0397
HKTFRKLRLFDTE [P13E],-0.0631
HKTFTKLRLFDTP [R5T],0.332
HTTFRKLRLFDTP [K2T],0.465
HKTFRDLRLFDTP [K6D],0.518

# Excerpt of the above (series 3):
Sequence,fitted relative affinity
TTAGGTCTCCTTATCCTATAGTGCTAG,0.634 z-score
TTAGATATCAGTATCGATTTGTGCTAG,4.14 z-score
TTAGGACTGGGTATCTGTTAGTGCTAG,0.479 z-score
GACAGTTTCGGTCTCGGGACGTGCTAG,14.4 z-score
GACGGACTGGACTATCGGGTCGTGCTA,-0.37 z-score
TTAGAACTGGGGACTGGAATAGTGCTA,-0.172 z-score
GACGGTATCGGGCTTCGGGACGTGCTA,2.69 z-score
CCCGTTCACCCACGACCCTTGTGCTAG,0.501 z-score
